Assay results from different studies.
Every numbered part comes from another study and shows a few of its results, in no order.

Series 1
Target: Histone acetyltransferase KAT6A, winged helix 1, GST fusion (KAT6A, Homo sapiens, UniProt Q92794, residues 1-85)
Technique: protein binding microarray
Molecule type: double-stranded DNA, one strand shown
Sample: in vitro
Tested at: not given
Setting: 8-mer, flanks averaged, mean of 2 arrays, mostly near background
Relative to: not given
Direction: higher = stronger binding
Endpoint: E-score
Target sequence (chain): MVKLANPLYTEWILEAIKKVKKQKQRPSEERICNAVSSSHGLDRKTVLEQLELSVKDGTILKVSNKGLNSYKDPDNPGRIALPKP
TGACAGCA: -0.109
CCTAAGTC: -0.186
ATGACCTC: -0.0337
AAAAACAA: -0.0207
CTTACTTA: -0.138
AAGAGAGA: -0.313
TAGCGCTA: 0.252
TACTTTAA: -0.067
AAAGATTC: -0.241
GGCGACAA: 0.0696
ATAACGGG: 0.0938
CCATCAAG: -0.144
GCTATCCA: 0.0742
AGGTCTGA: -0.0966
AGCCTACT: -0.232
ATAAGAAC: -0.0944
AGATTACT: -0.181

Series 2
Target: Ras GTPase-activating protein-binding protein 1, full length (G3BP1, Homo sapiens, UniProt Q13283)
UniProt Q13283, sequence (whole entry, looked up): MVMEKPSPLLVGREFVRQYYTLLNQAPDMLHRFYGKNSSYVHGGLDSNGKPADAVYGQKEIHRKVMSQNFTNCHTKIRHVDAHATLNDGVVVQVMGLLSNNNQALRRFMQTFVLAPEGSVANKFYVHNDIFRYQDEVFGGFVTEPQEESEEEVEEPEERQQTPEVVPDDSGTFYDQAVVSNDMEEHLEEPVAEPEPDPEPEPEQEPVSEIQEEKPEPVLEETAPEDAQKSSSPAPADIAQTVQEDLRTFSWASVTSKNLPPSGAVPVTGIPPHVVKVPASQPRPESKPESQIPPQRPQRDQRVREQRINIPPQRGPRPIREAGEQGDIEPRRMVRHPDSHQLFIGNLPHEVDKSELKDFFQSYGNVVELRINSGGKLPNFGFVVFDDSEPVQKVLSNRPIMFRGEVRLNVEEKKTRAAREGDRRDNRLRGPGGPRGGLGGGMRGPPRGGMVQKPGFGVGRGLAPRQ
Technique: RNA Bind-n-Seq
Molecule type: RNA
Sample: in vitro
Tested at: 200 nM
Setting: whole 134-nt RNA, ends assumed
With: 150 mM LiCl
Relative to: input library
Direction: higher = stronger binding
Endpoint: log2 enrichment
Each molecule: 7-deaza-guanosine replaces G
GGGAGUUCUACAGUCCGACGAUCAAGUCCUGUGCUACACAUCGUAUGUACCGAAUCGGAAAAAAAGGAAAGGUUUUUGGAAAGUAUUAUGUUACGCCGUUCGGAUCUGCACUUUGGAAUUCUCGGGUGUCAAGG: -1.9
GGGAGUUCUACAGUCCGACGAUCAGUCCUGUGCUACACAUCGUAUGUACCGAAUCGGUUUUUGGGUUUUUGGUUUUUGGGGAAAGUAUUAUGUUACGCCGUUCGGAUCUGCACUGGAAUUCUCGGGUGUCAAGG: -0.0393
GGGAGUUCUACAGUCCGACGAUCUAACUUUAGAGGAGGAUCUGAUGCAUAUGGCAGUGGACGUGGAUUUGGGGAUGGCUAUAAUGGGUAUGGAGGAGGACCUGGAGGUGGCAAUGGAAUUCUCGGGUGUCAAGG: 0.448
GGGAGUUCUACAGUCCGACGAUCUCAAGUCCUGUGCUACACAUCGUAUGUACCGAAUCGGUGGUUUGGAAAAAAAGGAAAGUAUUAUGUUACGCCGUUCGGAUCUGCACUUCCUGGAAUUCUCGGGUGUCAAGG: -0.35
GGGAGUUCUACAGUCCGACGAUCUAACUUUAGAGGAGGAUCUGAUGGAUAUGGCAGUGGACGUGGCUUUGGGGAUGGCUAUAAUGGGUAUGGAGGAGGACCUGGAGGUGGCAAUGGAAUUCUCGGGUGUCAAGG: -0.227
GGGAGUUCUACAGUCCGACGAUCUCAAGUCCUGUGCUACACAUCGUAUGUACCGAAUCGGGUUGGGGUUGGUUGGGGAAAGUAUUAUGUUACGCCGUUCGGAUCUGCACUUCCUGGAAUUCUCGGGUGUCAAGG: 0.272
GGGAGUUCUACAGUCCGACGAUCCAAGUCCUGUGCUACACAUCGUAUGUACCGAAUCGGGGAAAGGGAAAGGGAAAGGAAAGUAUUAUGUUACGCCGUUCGGAUCUGCACUUCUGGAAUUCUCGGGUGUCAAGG: -0.335
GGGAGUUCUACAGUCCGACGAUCUGGGAGGUGGAUUCUGUUUAUUUUUUUAGCUCAUUUCCAGGGGUGGGAAUUUUUUUUUAAUAUGUGUCAUGAAUAAAGUUGUUUUUGAAAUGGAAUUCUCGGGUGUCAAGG: 0.397
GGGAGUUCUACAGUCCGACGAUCGCAGGAAGUAAAAACAAAUGGAAAUGCUUCGGAUAGUGGCAGGGGUGGGGGUUGCUAAGGAAAGGGUGGGAUGGGAGUGGGUAAAAAAUUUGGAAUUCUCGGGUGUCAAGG: -0.099
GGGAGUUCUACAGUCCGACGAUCUUGCUUCAAGAAGAUCCCUAAGCUGUAGAACAUUUUAACGUUGAUGCCACAACGCAGAUUGAUGCCUUGUAGAUGGAGCUUGCAGAUGGAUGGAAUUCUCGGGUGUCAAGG: 1.27
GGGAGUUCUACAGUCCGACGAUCAAGUCCUGUGCUACACAUCGUAUGUACCGAAUCGGGAAAGGGUUUGGGUUUUUGGGAAAGUAUUAUGUUACGCCGUUCGGAUCUGCACUUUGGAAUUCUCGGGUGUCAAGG: -0.983

Series 3
Target: Interferon regulatory factor 3, full length, phosphomimetic (IRF3, Homo sapiens, UniProt Q14653, residues 1-427, S386D/S396D/S398D/S402D/T404D/S405D)
UniProt Q14653, sequence (whole entry, unmodified, looked up): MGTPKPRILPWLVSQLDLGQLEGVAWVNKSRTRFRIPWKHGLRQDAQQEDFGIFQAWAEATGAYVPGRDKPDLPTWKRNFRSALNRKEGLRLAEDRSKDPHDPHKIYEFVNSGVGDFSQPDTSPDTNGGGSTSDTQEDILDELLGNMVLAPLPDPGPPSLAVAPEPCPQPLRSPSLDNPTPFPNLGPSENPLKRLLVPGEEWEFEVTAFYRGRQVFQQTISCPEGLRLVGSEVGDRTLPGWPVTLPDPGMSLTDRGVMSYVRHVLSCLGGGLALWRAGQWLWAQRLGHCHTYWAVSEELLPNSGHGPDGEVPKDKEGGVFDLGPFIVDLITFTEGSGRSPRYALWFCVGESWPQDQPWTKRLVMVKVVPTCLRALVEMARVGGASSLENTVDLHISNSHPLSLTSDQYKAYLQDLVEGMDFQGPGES
Technique: protein-binding microarray
Molecule type: double-stranded DNA, one strand shown
Sample: in vitro
Tested at: 2540 nM top
Setting: 60-bp whole probe
With: salmon DNA 0.4 mg/ml
Relative to: random background probes
Direction: higher = stronger binding
Endpoint: fitted relative affinity
Shared flanks, not repeated: GCCTAGCAC … GTCTTGATTCGCTTGACGCTGCTG
GAAGAACTGAGTATCGAGACGTGCTAG: -0.182 z-score
GAGTGCTGGGATTACAGGCAGTGCTAG: -0.739 z-score
TTAGGTTCCGGTTTGGGTTAGTGCTAG: 3.72 z-score
TGAGATATCAGACTGGATTAGTGCTAG: -0.0552 z-score
TGGCCTATTTATATGAGATGGTGCTAG: 0.174 z-score
CATTATTTCAATGCAAGGTGGTGCTAG: 0.898 z-score
GACGAGCTCAGTTTCGAGACGTGCTAG: 2.14 z-score
GACGGACTGGAGTTTCGGGACGTGCTA: 1.14 z-score
TTAGGTATCCTTTCCCTTTAGTGCTAG: 7.63 z-score
TCACCTTTTTTTTTTTTACTGTGCTAG: 2.4 z-score
TTAGGTCTCCTATTGCTTTAGTGCTAG: 1.26 z-score
ACACTCTTCTTTTGCTAATTGTGCTAG: 1.43 z-score
TTAGGTAACGGTCTCGGTTAGTGCTAG: 0.472 z-score
GACGGACTGGGTCTCAGGACGTGCTAG: -0.633 z-score
TTAGATCTGAGTTTCGATTAGTGCTAG: 2.52 z-score
TTAGAAATGAGACTGGATTAGTGCTAG: -0.0708 z-score
TCTCATTCCAATTCTTTTTATGTGCTA: 1.97 z-score
TTAGATATCGGGATTCGATTAGTGCTA: 0.505 z-score
TTAGAACTGGGTATCGGTTAGTGCTAG: 0.597 z-score
TTAGAACTGGACTTTCGGTTAGTGCTA: 1.2 z-score
GACGGTTTCCGTCTCCTGACGTGCTAG: 6.39 z-score

Series 4
Target: RNA binding protein fox-1 homolog 2, RRM domain, GST-SBP tag (RBFOX2, Homo sapiens, UniProt O43251-10, residues 100-194)
Technique: RNA Bind-n-Seq
Molecule type: RNA
Sample: in vitro
Tested at: 365 nM
Setting: natural RNA segment, single round, ends assumed
Relative to: no-protein control
Direction: higher = stronger binding
Endpoint: RBNS enrichment (R)
Residues (chain): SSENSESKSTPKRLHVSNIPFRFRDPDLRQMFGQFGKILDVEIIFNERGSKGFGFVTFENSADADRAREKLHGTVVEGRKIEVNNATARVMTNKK
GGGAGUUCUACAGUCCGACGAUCCAGGGGGCAGAAGGCACAACCAUUUCCAUGGUGUGCCGAGAGAAGGAGCUGAGGUCAGCAAGCCAGUGGUUCUUAAGAGCUGAACCUCUGGCUUUACUGUUGGAAGUUGUUGGAAUUCUCGGGUGCCAA: 0.522
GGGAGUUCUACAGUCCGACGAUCUACUGUAAUAUCAAAAUACUAUGUCGAAUUAUUUCAGAUGUUCAGAUUGAAUAGGGUAAAAGAAAGUCUUUAAAUGCUAUCGCAUCCUAGACCCUCUUCCCACCUACUAUUGGAAUUCUCGGGUGCCAA: 0.241
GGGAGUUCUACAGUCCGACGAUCCAGCCGUCAGGCCCGCUUCGUCGUCAUCUCUAUCUCCCUGCUCCCUGGCCCUGAGGGUUUGGAAUCUGACCGGGUGAAGGCACCACCGGCGAGCUUUUGAAAGCAACAGGUGGAAUUCUCGGGUGCCAA: 0.317
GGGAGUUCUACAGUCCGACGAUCGAGCCAGCUCCCUCACCCCUUCUUGCCUUCCCUCUGCCUGGCCUGGAACUCGGGCUUCUGCCCAUUGCCCUCUGAAGCUGCUUCCCAUCUGAUGUCACUGGGAGACAGCAUGGAAUUCUCGGGUGCCAA: 1.47
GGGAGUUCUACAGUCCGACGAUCUUCCGAUGAAUUCUUAUCCCCUGCCCCUUCCUUUAAAAAACUUAGUGACAAAAUAGACAAUUUGCACAUCUUGGCUAUGUAAUUCUUGUAAUUUUUAUUUAGGAAGUGUUUGGAAUUCUCGGGUGCCAA: 1.71
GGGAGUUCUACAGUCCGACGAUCGUUAUCCACCUUGUACUAGUAAGUUUUAGCACUGAAUUCCUUCUUCACUGUUGUUUGUAUUUAUGAAAUUCUGAAAUUAUGGGGAAUCAGCGUAAUGAUUAAGUUAUUCAUGGAAUUCUCGGGUGCCAA: 0.504
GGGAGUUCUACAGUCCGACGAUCAGUGUUGCUGCCUUCAGUUUGGUUCUGGCCAUGAGGCCCCUAGUGGGAGCUUUGCCCUUAGGGCUGUCCUCUGACUUGCCCUCAAAGUUCACCAAUUCGGCAACUCCAUGUGGAAUUCUCGGGUGCCAA: 0.32
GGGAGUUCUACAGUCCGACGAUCCCAGUCGAUCACAGCCAUUACCAAUAAGUUCAACCUCAAAGUACUUCAUAAAAAUCUGACCAAUCUACUAAAAUACUGCAGGCGUGAAAGGUUCUGUUGGAGCUGAAUGUUGGAAUUCUCGGGUGCCAA: 0.488
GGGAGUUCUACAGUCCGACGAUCGGCAUGCACCACCAUGCCCGGCUAAUUUUUUUGUGUUUUUAGUAGAGAUGGGGUUUCACCGUGCUGGCCAGGCUGGUCUAGAACUCCUGACUGCAAAUGAUCAGCCCGCCUGGAAUUCUCGGGUGCCAA: 0.847
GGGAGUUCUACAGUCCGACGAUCAAGACUAAUGUUAAUUGUUCUUAAAACUGGAUUUUUUUUCCUUAAAGCAAUUUUUUUCUUUUCGAUUUAAUGAAGUAUUGCUAGCUGAAGCCAGUUUGACAUAGAGAGAUUGGAAUUCUCGGGUGCCAA: 0.504
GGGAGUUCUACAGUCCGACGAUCCUCCUACCCCUUUCCUCACCCCCAAACAAAGCAAAACAAAACAAACAAAAAUCUUCACCUGCCUUGGGCUGCGCAUAGGACAGGGCUCCACCUGCUGCCCAAGGGAUGUGUGGAAUUCUCGGGUGCCAA: 1.03
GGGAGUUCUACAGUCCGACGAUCAUCCUUUGUAUCAUAGCAAAGGAAAUGUUUAAAAGAUCAACUGUAAUAAAAGUAAUUUUAGUACACAUGUCUGCUCACUUUAUUUUUUAGAUUUUGUUUUAUUUGUUUAUUGGAAUUCUCGGGUGCCAA: 5.17

For quick reference, copied from above (series 3):
TCACCTTTTTTTTTTTTACTGTGCTAG: 2.4 z-score
TTAGATCTGAGTTTCGATTAGTGCTAG: 2.52 z-score
TGAGATATCAGACTGGATTAGTGCTAG: -0.0552 z-score
CATTATTTCAATGCAAGGTGGTGCTAG: 0.898 z-score
GACGGTTTCCGTCTCCTGACGTGCTAG: 6.39 z-score
